{"data": "Results pooled from the literature", "note": "Numbered parts are unrelated; each lists some results of a single study.", "sequence of UniProt P07948 (whole entry, looked up)": "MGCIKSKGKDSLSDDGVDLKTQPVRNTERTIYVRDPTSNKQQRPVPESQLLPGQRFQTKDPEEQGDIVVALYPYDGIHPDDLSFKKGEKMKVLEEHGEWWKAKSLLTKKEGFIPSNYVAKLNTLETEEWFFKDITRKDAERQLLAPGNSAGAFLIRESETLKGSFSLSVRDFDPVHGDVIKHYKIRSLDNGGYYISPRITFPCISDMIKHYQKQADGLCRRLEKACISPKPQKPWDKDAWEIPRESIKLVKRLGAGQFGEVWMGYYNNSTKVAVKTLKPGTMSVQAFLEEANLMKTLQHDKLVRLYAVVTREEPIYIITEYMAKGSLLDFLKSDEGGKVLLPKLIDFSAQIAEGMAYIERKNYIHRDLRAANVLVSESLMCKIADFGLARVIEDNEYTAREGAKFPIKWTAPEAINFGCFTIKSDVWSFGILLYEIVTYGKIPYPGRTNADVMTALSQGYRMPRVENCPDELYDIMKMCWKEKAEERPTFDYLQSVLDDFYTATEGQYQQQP", "sequence of UniProt P68400 (whole entry, looked up)": "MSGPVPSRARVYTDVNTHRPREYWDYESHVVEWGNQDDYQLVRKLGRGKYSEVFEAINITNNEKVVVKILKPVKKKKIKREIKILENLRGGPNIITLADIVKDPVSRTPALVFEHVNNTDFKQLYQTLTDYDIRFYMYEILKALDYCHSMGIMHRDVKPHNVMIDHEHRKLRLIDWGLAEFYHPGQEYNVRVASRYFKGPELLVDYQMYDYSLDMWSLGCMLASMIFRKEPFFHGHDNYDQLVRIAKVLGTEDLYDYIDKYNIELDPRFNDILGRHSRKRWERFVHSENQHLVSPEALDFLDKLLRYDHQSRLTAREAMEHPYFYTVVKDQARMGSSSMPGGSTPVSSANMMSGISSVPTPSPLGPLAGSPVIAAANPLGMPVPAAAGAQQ", "sequence of UniProt P15056 (whole entry, looked up)": "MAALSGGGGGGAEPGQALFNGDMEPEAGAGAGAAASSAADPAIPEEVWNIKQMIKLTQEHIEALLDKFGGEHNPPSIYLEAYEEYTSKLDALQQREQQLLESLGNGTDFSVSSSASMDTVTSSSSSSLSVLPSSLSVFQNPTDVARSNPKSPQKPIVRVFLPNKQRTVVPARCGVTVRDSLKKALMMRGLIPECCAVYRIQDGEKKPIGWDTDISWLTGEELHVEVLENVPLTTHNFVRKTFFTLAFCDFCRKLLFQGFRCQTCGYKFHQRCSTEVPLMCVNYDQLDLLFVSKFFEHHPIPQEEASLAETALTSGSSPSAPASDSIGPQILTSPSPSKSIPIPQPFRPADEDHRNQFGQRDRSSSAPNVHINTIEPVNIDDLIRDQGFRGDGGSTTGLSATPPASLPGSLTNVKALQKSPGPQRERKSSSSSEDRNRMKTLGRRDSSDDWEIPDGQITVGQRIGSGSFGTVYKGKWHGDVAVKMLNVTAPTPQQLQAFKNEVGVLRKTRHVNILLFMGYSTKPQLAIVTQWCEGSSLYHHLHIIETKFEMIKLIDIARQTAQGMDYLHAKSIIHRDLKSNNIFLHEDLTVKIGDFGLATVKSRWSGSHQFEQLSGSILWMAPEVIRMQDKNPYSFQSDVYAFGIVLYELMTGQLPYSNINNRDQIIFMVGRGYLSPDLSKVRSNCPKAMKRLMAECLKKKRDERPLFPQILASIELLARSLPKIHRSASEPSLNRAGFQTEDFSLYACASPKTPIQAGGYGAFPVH", "sequence of UniProt P08922 (whole entry, looked up)": "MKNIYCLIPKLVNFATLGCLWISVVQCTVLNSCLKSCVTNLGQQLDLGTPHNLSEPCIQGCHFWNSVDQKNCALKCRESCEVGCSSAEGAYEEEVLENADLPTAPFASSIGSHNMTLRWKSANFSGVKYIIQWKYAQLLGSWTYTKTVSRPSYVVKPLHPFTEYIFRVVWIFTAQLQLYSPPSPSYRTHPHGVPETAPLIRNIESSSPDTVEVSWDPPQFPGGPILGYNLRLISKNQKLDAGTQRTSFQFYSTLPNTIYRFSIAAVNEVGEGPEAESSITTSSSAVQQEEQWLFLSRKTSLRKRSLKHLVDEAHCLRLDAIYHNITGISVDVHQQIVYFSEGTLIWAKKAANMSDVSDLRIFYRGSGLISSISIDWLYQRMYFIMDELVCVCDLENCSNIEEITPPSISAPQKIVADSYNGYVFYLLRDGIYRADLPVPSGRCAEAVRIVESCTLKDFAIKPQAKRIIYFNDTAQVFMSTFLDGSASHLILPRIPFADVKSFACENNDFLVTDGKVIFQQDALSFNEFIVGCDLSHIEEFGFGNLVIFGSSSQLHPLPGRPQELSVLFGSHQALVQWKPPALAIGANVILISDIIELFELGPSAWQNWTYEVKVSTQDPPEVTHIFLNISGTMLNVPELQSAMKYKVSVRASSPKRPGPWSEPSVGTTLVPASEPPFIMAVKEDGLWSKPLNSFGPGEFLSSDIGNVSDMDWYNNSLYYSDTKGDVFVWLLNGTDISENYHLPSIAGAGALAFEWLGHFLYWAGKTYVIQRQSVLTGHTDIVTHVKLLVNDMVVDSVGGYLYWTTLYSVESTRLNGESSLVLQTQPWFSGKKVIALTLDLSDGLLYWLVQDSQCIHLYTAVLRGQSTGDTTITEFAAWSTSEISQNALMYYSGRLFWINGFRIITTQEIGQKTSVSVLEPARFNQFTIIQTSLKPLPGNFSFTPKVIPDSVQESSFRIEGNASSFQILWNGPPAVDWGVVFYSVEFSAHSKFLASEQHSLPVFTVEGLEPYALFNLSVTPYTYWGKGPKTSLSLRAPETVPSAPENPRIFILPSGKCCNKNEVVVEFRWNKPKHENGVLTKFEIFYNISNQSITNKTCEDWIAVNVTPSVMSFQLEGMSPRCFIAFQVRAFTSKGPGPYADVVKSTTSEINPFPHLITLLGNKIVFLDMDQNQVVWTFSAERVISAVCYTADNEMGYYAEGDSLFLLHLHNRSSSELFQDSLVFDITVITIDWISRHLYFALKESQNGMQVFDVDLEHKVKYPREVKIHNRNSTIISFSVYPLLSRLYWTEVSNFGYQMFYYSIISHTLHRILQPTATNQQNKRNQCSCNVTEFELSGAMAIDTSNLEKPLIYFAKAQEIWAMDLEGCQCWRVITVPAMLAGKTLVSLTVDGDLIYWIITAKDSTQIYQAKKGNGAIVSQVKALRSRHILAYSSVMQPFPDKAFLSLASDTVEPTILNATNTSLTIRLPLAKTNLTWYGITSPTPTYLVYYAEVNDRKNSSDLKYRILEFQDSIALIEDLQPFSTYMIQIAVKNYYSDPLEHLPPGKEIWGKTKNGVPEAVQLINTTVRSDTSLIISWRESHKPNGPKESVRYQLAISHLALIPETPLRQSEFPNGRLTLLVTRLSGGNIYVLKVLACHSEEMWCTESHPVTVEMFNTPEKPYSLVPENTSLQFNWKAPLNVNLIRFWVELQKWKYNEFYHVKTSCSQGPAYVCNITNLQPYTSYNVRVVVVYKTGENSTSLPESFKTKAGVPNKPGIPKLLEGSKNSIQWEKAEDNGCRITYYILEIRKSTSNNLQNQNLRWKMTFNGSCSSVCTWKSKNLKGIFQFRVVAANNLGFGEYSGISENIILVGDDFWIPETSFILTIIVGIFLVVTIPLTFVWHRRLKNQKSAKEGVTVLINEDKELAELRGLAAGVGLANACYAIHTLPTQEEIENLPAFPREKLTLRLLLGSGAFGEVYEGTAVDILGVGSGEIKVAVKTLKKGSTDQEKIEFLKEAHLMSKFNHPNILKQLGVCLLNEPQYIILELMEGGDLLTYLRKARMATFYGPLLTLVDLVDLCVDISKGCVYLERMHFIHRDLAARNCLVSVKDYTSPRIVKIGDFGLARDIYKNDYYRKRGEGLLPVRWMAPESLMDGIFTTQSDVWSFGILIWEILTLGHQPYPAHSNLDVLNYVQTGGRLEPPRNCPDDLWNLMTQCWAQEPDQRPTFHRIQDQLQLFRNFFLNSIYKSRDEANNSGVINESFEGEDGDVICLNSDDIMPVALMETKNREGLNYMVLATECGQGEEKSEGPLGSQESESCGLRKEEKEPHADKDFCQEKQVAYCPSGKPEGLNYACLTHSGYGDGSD", "sequence of UniProt Q9NYY3 (whole entry, looked up)": "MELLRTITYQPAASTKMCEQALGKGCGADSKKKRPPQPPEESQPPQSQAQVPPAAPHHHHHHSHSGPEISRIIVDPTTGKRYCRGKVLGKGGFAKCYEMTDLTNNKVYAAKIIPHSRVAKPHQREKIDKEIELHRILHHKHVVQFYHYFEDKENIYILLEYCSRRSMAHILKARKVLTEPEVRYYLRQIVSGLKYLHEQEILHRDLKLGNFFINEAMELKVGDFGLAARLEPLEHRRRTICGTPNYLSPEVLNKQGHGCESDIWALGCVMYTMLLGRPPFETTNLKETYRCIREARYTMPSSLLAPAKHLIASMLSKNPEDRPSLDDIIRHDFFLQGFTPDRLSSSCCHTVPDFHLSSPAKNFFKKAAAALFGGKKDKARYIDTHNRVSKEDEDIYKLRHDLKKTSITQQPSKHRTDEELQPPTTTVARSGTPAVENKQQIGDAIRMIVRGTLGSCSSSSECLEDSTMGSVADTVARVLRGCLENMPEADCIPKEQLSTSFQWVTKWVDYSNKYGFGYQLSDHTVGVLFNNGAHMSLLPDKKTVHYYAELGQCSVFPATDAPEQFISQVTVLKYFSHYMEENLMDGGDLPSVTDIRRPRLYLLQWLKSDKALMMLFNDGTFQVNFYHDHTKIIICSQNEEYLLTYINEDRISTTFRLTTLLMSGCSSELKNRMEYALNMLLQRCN", "sequence of UniProt P52564 (whole entry, looked up)": "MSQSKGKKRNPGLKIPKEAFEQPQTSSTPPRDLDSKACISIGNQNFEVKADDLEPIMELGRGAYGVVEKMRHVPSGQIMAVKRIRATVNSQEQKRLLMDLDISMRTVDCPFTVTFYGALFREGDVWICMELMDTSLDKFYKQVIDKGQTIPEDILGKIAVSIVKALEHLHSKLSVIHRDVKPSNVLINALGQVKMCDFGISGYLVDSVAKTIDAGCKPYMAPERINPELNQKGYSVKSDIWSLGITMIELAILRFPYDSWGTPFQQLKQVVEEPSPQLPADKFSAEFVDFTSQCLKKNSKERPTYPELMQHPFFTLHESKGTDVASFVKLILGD"}
{"data": "Set 1", "Structure (SMILES)": "COc1cc(-c2cn(C3CCc4c(F)cccc4N(CC(F)(F)F)C3=O)nn2)ccc1-n1cnc(C)c1 (centres unmarked)", "method": "competition with immobilised ligand", "concentration": "1 µM"}
{"target": "Tyrosine-protein kinase receptor TYRO3 (TYRO3, Homo sapiens, UniProt Q06418)", "assay": "cell-free assay", "remaining binding": "100%"}
{"target": "ALK tyrosine kinase receptor (ALK, Homo sapiens, UniProt Q9UM73)", "assay": "cell-free assay", "remaining binding": "100%"}
{"target": "Receptor-type tyrosine-protein kinase FLT3 (FLT3, Homo sapiens, UniProt P36888, R834Q)", "assay": "cell-free assay", "remaining binding": "100%"}
{"target": "Tyrosine-protein kinase SYK (SYK, Homo sapiens, UniProt P43405)", "assay": "cell-free assay", "remaining binding": "100%"}
{"target": "Protein-tyrosine kinase 2-beta (PTK2B, Homo sapiens, UniProt Q14289)", "assay": "cell-free assay", "remaining binding": "100%"}
{"target": "Mitogen-activated protein kinase 3 (MAPK3, Homo sapiens, UniProt P27361)", "assay": "cell-free assay", "remaining binding": "100%"}
{"target": "Serine/threonine-protein kinase B-raf (BRAF, Homo sapiens, UniProt P15056)", "assay": "cell-free assay", "remaining binding": "100%"}
{"target": "Phosphatidylinositol 4-kinase beta (PI4KB, Homo sapiens, UniProt Q9UBF8)", "assay": "cell-free assay", "remaining binding": "79%"}
{"target": "Bone morphogenetic protein receptor type-1A (BMPR1A, Homo sapiens, UniProt P36894)", "assay": "binding", "remaining binding": "100%"}
{"target": "Tyrosine-protein kinase ABL1, non-phosphorylated (ABL1, Homo sapiens, UniProt P00519, T315I)", "assay": "cell-free assay", "remaining binding": "85%"}
{"target": "Phosphatidylinositol 4,5-bisphosphate 3-kinase catalytic subunit beta isoform (PIK3CB, Homo sapiens, UniProt P42338)", "assay": "cell-free assay", "remaining binding": "100%"}
{"target": "Ankyrin repeat and protein kinase domain-containing protein 1 (ANKK1, Homo sapiens, UniProt Q8NFD2)", "assay": "cell-free assay", "remaining binding": "100%"}
{"target": "Ephrin type-B receptor 6 (EPHB6, Homo sapiens, UniProt O15197)", "assay": "cell-free assay", "remaining binding": "100%"}
{"target": "Glycogen synthase kinase-3 alpha (GSK3A, Homo sapiens, UniProt P49840)", "assay": "cell-free assay", "remaining binding": "100%"}
{"target": "Casein kinase I isoform gamma-2 (CSNK1G2, Homo sapiens, UniProt P78368)", "assay": "cell-free assay", "remaining binding": "100%"}
{"target": "Ephrin type-B receptor 3 (EPHB3, Homo sapiens, UniProt P54753)", "assay": "cell-free assay", "remaining binding": "100%"}
{"target": "Ribosomal protein S6 kinase alpha-5, C-terminal kinase domain (RPS6KA5, Homo sapiens, UniProt O75582)", "assay": "cell-free assay", "remaining binding": "73%"}
{"target": "Serine/threonine-protein kinase 17B (STK17B, Homo sapiens, UniProt O94768)", "assay": "cell-free assay", "remaining binding": "99%"}
{"data": "Set 2", "Compound": "COc1ccc(Cl)cc1NC(=O)Nc1cc(C)nc2ccccc12", "effect on": "enzyme activity", "mode": "inhibitor", "concentration": "0.5 µM", "reference": "control"}
{"target": "MAP kinase-interacting serine/threonine-protein kinase 2 (MKNK2, Homo sapiens, UniProt Q9HBH9)", "remaining activity [%]": 90.3}
{"target": "Ephrin type-A receptor 5 (EPHA5, Homo sapiens, UniProt P54756)", "remaining activity [%]": 123}
{"target": "Mitogen-activated protein kinase kinase kinase kinase 2 (MAP4K2, Homo sapiens, UniProt Q12851)", "remaining activity [%]": 114}
{"target": "Serine/threonine-protein kinase Nek4 (NEK4, Homo sapiens, UniProt P51957)", "remaining activity [%]": 92}
{"target": "Casein kinase II subunit alpha (CSNK2A1, Homo sapiens, UniProt P68400)", "remaining activity [%]": 97.9}
{"target": "Casein kinase I isoform alpha (CSNK1A1, Homo sapiens, UniProt P48729)", "remaining activity [%]": 101}
{"target": "Protein kinase C iota type (PRKCI, Homo sapiens, UniProt P41743)", "remaining activity [%]": 99.4}
{"target": "Leucine-rich repeat serine/threonine-protein kinase 2 (LRRK2, Homo sapiens, UniProt Q5S007)", "remaining activity [%]": 98}
{"target": "Mitogen-activated protein kinase 13 (MAPK13, Homo sapiens, UniProt O15264)", "remaining activity [%]": 108}
{"target": "Mast/stem cell growth factor receptor Kit (KIT, Homo sapiens, UniProt P10721)", "remaining activity [%]": 102}
{"target": "Serine/threonine-protein kinase WNK2 (WNK2, Homo sapiens, UniProt Q9Y3S1)", "remaining activity [%]": 104}
{"target": "RAC-gamma serine/threonine-protein kinase (AKT3, Homo sapiens, UniProt Q9Y243)", "remaining activity [%]": 103}
{"target": "Serine/threonine-protein kinase Chk1 (CHEK1, Homo sapiens, UniProt O14757)", "remaining activity [%]": 96.6}
{"target": "Tyrosine-protein kinase Lyn (LYN, Homo sapiens, UniProt P07948)", "remaining activity [%]": 111}
{"target": "Serine/threonine-protein kinase PLK2 (PLK2, Homo sapiens, UniProt Q9NYY3)", "remaining activity [%]": 102}
{"target": "Protein kinase C delta type (PRKCD, Homo sapiens, UniProt Q05655)", "remaining activity [%]": 96.3}
{"target": "Cyclin-dependent kinase 9, with cyclin T1 (CDK9, Homo sapiens, UniProt P50750)", "remaining activity [%]": 98.2}
{"target": "Dual specificity mitogen-activated protein kinase kinase 6 (MAP2K6, Homo sapiens, UniProt P52564)", "remaining activity [%]": 89.9}
{"target": "Interleukin-1 receptor-associated kinase 4 (IRAK4, Homo sapiens, UniProt Q9NWZ3)", "remaining activity [%]": 99.9}
{"target": "Mitogen-activated protein kinase 12 (MAPK12, Homo sapiens, UniProt P53778)", "remaining activity [%]": 101}
{"target": "cGMP-dependent protein kinase 1 (PRKG1, Homo sapiens, UniProt Q13976)", "remaining activity [%]": 97.5}
{"target": "Tyrosine-protein kinase BTK (BTK, Homo sapiens, UniProt Q06187)", "remaining activity [%]": 102}
{"data": "Set 3", "SMILES": "C=CC(=O)N1CCC([C@@H]2CCNc3c(C(N)=O)c(-c4ccc(Oc5ccccc5)cc4)nn32)CC1", "concentration": "1 µM"}
{"target": "Calcium/calmodulin-dependent protein kinase type II subunit gamma (CAMK2G, Homo sapiens, UniProt Q13555)", "assay": "inhibitor", "inhibition": "0%"}
{"target": "Mitogen-activated protein kinase kinase kinase 1 (MAP3K1, Homo sapiens, UniProt Q13233)", "assay": "enzyme activity, inhibitor", "inhibition": "0%"}
{"target": "MAP kinase-interacting serine/threonine-protein kinase 1 (MKNK1, Homo sapiens, UniProt Q9BUB5)", "assay": "enzyme activity, inhibitor", "inhibition": "1%"}
{"target": "Mitogen-activated protein kinase kinase kinase 13 (MAP3K13, Homo sapiens, UniProt O43283)", "assay": "enzyme activity, inhibitor", "inhibition": "14%"}
{"target": "Proto-oncogene tyrosine-protein kinase ROS (ROS1, Homo sapiens, UniProt P08922)", "assay": "enzyme activity, inhibitor", "inhibition": "0%"}
{"target": "Myosin light chain kinase, smooth muscle (MYLK, Homo sapiens, UniProt Q15746)", "assay": "enzyme activity, inhibitor", "inhibition": "23%"}
{"target": "Tyrosine-protein kinase Fes/Fps (FES, Homo sapiens, UniProt P07332)", "assay": "enzyme activity, inhibitor", "inhibition": "4%"}
{"target": "Tyrosine-protein kinase Lyn (LYN, Homo sapiens, UniProt P07948)", "assay": "enzyme activity, inhibitor", "inhibition": "53%"}
{"target": "Serine/threonine-protein kinase WNK3 (WNK3, Homo sapiens, UniProt Q9BYP7)", "assay": "enzyme activity, inhibitor", "inhibition": "11%"}
{"target": "TGF-beta receptor type-2 (TGFBR2, Homo sapiens, UniProt P37173)", "assay": "cell-free assay", "inhibition": "0%"}
{"data": "Set 4", "Structure (SMILES)": "CC(C)n1cnc(-c2ccc(F)cc2)c1-c1ncc(C(=O)Nc2ccc(N3CCN(C)CC3)cc2)[nH]1", "species": "idiopathic pulmonary fibrosis patients"}
{"assay": "phase 2a trial, refers to: carotid intima-media thickening", "setting": "dose not given, grade 3, all arms pooled", "adverse event incidence": "0%"}
{"assay": "phase 2a trial, refers to: hydroxybutyrate dehydrogenase increased", "setting": "60 mg once daily, grade 4", "adverse event incidence": "0%"}
{"assay": "phase 2a trial, refers to: liver injury", "setting": "dose not given, grade 4, all arms pooled", "adverse event incidence": "0%"}
{"assay": "phase 2a trial, refers to: liver injury", "setting": "30 mg once daily, grade 2", "adverse event incidence": "0%"}
{"assay": "phase 2a trial, refers to: allergic conjunctivitis", "setting": "30 mg once daily, grade 3", "adverse event incidence": "0%"}
{"assay": "phase 2a trial, refers to: QRS axis abnormal", "setting": "30 mg once daily, grade 4", "adverse event incidence": "0%"}
{"assay": "phase 2a trial, refers to: hepatic enzyme abnormal", "setting": "30 mg once daily, grade 4", "adverse event incidence": "0%"}
{"assay": "phase 2a trial, refers to: appendicitis", "setting": "60 mg once daily, grade 1", "adverse event incidence": "0%"}
{"setting": "30 mg twice daily, any event without SOC", "adverse event incidence": "90%"}
{"assay": "phase 2a trial, refers to: hepatic enzyme abnormal", "setting": "dose not given, grade 5, all arms pooled", "adverse event incidence": "0%"}
{"assay": "phase 2a trial, refers to: synovitis", "setting": "30 mg once daily, grade 1", "adverse event incidence": "0%"}
{"assay": "phase 2a trial, refers to: weight decreased", "setting": "30 mg once daily, grade 1", "adverse event incidence": "0%"}
{"assay": "phase 2a trial, refers to: hydroxybutyrate dehydrogenase increased", "setting": "dose not given, grade 2, all arms pooled", "adverse event incidence": "0%"}
{"assay": "phase 2a trial, refers to: arthritis", "setting": "30 mg once daily, grade 3", "adverse event incidence": "0%"}
{"assay": "phase 2a trial, refers to: arthritis", "setting": "dose not given, grade 3, all arms pooled", "adverse event incidence": "0%"}
{"note": "For quick reference, copied from above (set 2):"}
{"target": "Interleukin-1 receptor-associated kinase 4 (IRAK4, Homo sapiens, UniProt Q9NWZ3)", "remaining activity [%]": 99.9}
{"target": "Serine/threonine-protein kinase PLK2 (PLK2, Homo sapiens, UniProt Q9NYY3)", "remaining activity [%]": 102}
{"target": "Mitogen-activated protein kinase kinase kinase kinase 2 (MAP4K2, Homo sapiens, UniProt Q12851)", "remaining activity [%]": 114}
{"target": "RAC-gamma serine/threonine-protein kinase (AKT3, Homo sapiens, UniProt Q9Y243)", "remaining activity [%]": 103}
{"target": "Serine/threonine-protein kinase WNK2 (WNK2, Homo sapiens, UniProt Q9Y3S1)", "remaining activity [%]": 104}
